{"data": "Published values collected from several papers", "cell line": "A549", "note": "Lines come from different studies, so protocols differ. ± gives the spread as reported."}
{"Structure (SMILES)": "O=C(C=Cc1ccccc1)OC1C=CC(O)C(O)(COC(=O)c2ccccc2)C1O (single isomer, unassigned; (-))", "test": "cell growth or viability, MTT", "conditions": "100 µg/mL", "measurement": "viability", "result": "80.2%"}
{"Structure (SMILES)": "COc1cc(OC)c(-c2coc3c4c(cc(O)c3c2=O)OC(C)(C)C=C4)cc1OC", "test": "cell growth or viability, MTT", "conditions": "100 µg/mL", "measurement": "viability", "result": "84.6%"}
{"Structure (SMILES)": "S=c1n(-c2ccccc2)c2c3ccccc3nc3[n+]2[n]1[Ir-3]12([S]3)([c]3ccccc3-c3cccc[n+]31)[c]1ccccc1-c1cccc[n+]12", "test": "ICP-MS", "conditions": "10 µM, 24 h, 37 °C", "measurement": "cellular iridium uptake", "result": "1.58 ± 0.09 fmol/cell"}
{"Structure (SMILES)": "COc1cc2c(cc1OC)-c1c(oc3c4c(cc(O)c3c1=O)OC(C)(C)C=C4)CO2", "test": "cell growth or viability, MTT", "conditions": "100 µg/mL", "measurement": "viability", "result": "70.2%"}
{"Structure (SMILES)": "S=c1n(-c2ccccc2)c2c3ccccc3nc3[n+]2[n]1[Ir-3]12([S]3)([c]3ccccc3-c3sc4ccccc4[n+]31)[c]1ccccc1-c1sc3ccccc3[n+]12", "test": "ICP-MS", "conditions": "10 µM, 24 h, 37 °C", "measurement": "cellular iridium uptake", "result": "2.15 ± 0.16 fmol/cell"}
{"Structure (SMILES)": "COc1cc(Oc2c(O)cc(C)cc2OC)c(C(=O)O)c(C)c1O", "test": "MTT", "conditions": "10 or 50 µM, 48 h", "measurement": "viability", "result": "106 ± 4.3%"}
{"Structure (SMILES)": "CCNc1cc2c(cc1C)C1(c3cc(C)c(NCC)cc3O2)c2ccccc2C(=O)N1N=Cc1c[c-]c(-c2ccccn2)cc1.Cc1c(C)c(-c2ccc(-c3ccccc3)cc2)[c-](C)c1C.[Cl-].[Ir+3]", "test": "annexin V/PI flow cytometry", "conditions": "2.0×IC50, 24 h", "measurement": "viable cells", "result": "4.96 ± 0.13%"}
{"Structure (SMILES)": "COC1C=CC(OC(=O)C=Cc2ccccc2)C(O)C1(O)COC(=O)c1ccccc1 (single isomer, unassigned; (-))", "test": "cell growth or viability, MTT", "conditions": "100 µg/mL", "measurement": "viability", "result": "83.3%"}
{"Structure (SMILES)": "O=c1c(O)c(-c2ccc(N(c3ccccc3)c3ccccc3)cc2)oc2cc3ccccc3cc12", "conditions": "concentration not given, 24 h, visible light illumination", "measurement": "cytotoxicity", "result": "not toxic"}
{"Structure (SMILES)": "COc1cc(Oc2c(O)c(Cl)c(C)c(Cl)c2OC)c(C(=O)O)c(C)c1O", "test": "MTT", "conditions": "10 or 50 µM, 48 h", "measurement": "viability", "result": "99.4 ± 8.6%"}
{"Structure (SMILES)": "NC[C@H]1O[C@H](O[C@H]2[C@H](O)[C@@H](O[C@H]3O[C@H](Cn4cc(CNC(=S)Nc5ccc6c(c5)C(=O)OC65c6ccc(O)cc6Oc6cc(O)ccc65)nn4)[C@@H](O)[C@H](N)[C@H]3O)[C@H](N)C[C@@H]2N)[C@H](O)[C@@H](O)[C@@H]1O", "conditions": "5 µM, 24 h", "measurement": "cytotoxicity", "result": "2 ± 0.7%"}
{"Structure (SMILES)": "COc1cc(Oc2c(O)c(Br)c(C)c(Br)c2OC)c(C(=O)O)c(C)c1O", "test": "MTT", "conditions": "10 or 50 µM, 48 h", "measurement": "viability", "result": "96.6 ± 14.8%"}
{"Structure (SMILES)": "COc1cc2c(cc1OC)[C@@H]1C(=O)c3c(O)cc4c(c3O[C@@H]1CO2)C=CC(C)(C)O4", "test": "cell growth or viability, MTT", "conditions": "100 µg/mL", "measurement": "viability", "result": "68.6%"}
{"note": "Excerpt of the above:"}
{"Structure (SMILES)": "COc1cc(Oc2c(O)cc(C)cc2OC)c(C(=O)O)c(C)c1O", "test": "MTT", "conditions": "10 or 50 µM, 48 h", "measurement": "viability", "result": "106 ± 4.3%"}
{"Structure (SMILES)": "O=C(C=Cc1ccccc1)OC1C=CC(O)C(O)(COC(=O)c2ccccc2)C1O (single isomer, unassigned; (-))", "test": "cell growth or viability, MTT", "conditions": "100 µg/mL", "measurement": "viability", "result": "80.2%"}
